Measurements pooled from the literature.
Compare with care: the assays were run in different laboratories.
Target: Sodium-dependent dopamine transporter (SLC6A3, Homo sapiens, UniProt Q01959)
UniProt Q01959, sequence (whole entry, looked up): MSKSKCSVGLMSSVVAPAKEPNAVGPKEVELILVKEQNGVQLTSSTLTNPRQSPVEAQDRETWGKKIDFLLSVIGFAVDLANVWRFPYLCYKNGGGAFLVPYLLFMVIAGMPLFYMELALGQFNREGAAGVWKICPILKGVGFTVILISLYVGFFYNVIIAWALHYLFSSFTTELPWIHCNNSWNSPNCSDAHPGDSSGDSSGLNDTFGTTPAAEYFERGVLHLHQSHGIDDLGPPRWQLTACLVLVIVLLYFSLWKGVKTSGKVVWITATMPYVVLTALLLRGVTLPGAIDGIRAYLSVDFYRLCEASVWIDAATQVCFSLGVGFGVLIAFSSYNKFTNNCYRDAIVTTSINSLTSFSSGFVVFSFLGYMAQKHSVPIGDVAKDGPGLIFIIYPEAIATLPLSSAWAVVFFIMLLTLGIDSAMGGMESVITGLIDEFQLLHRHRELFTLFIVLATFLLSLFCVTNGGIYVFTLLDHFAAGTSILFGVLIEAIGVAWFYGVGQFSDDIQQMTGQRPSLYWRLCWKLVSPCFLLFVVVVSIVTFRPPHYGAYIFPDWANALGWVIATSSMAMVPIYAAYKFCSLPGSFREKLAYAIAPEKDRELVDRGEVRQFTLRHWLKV

| SMILES | read-out | mode | technique | tested at | inhibition [%] |
| --- | --- | --- | --- | --- | --- |
| Cc1[nH]nc2c1N=C(c1ccccc1Cl)c1cnc(N3CCOCC3)cc1N2 | cell-free assay | – | – | 10 µM | 20 |
| COc1ccc(C#CC2=C[C@H]3C[C@@]4(OC(=O)C=C24)[C@H]2CC[C@H](C(OC)OC)N32)cc1 | ligand displacement | – | radioligand | 10 µM | -10 |
| C[Si]1(C[C@H](CN)CC(=O)O)CCCC1 | ligand displacement | – | radioligand | 70 µM | -8 |
| O=C(O)COc1cccc(NC(=O)c2cc(-c3cccc(F)c3)ccc2F)c1 | ligand displacement | – | radioligand | 10 µM | 9 |
| CCOC(=O)C12CC1C(n1cnc3c(NC)nc(C#Cc4ccc(F)s4)nc31)C(O)C2O (stereo not shown) | ligand displacement | – | radioligand | 10 µM | -320 |
| Cc1cccc(O[C@H]2CCC[C@@H](C(C)CNCc3ccncc3)C2)c1 (relative stereo) | cell-free assay | – | – | 10 µM | 97 |
| COc1ccc(S(=O)(=O)N2CCc3ccccc3C2)cc1N1CCN(C(=O)c2ccc(F)cc2C(F)(F)F)CC1 | ligand displacement | – | radioligand | 1 µM | 8.8 |
| CC(=O)c1cnc(N)nc1N1CC[C@H]1c1nn2ccc(Cl)c2c(=O)n1-c1ccccc1 | ligand displacement | – | radioligand | 10 µM | 25 |
| CNC(=O)C12CC1C(n1cnc3c(NC)nc(C#Cc4ccccc4Cl)nc31)C(O)C2O (stereo not shown) | ligand displacement | – | radioligand | 10 µM | -480 |
| O=C1c2sc(-c3ccc(N4CCC(CO)CC4)nc3F)nc2CCN1c1cccnc1 | ligand displacement | – | radioligand | 1 µM | 12 |
| CC(C)Cn1c(SCC(=O)N2CCc3ccccc3C2)nc2cc(Cl)ccc2c1=O | ligand displacement | – | radioligand | 10 µM | -19 |
| CO[C@@H](C)c1c(NC(=O)Nc2cnc(-n3nccn3)c(C(F)(F)F)c2)cnc2sc(C)nc12 | ligand displacement | – | radioligand | 10 µM | 19.3 |
| COCC(=O)N1CCc2cc(-c3csc(NC(=O)c4cc(OC)cc(OC)c4)n3)ccc21 | – | – | – | 10 µM | -1 |
| C[Si](C)(C)C[C@@H](CN)CC(=O)O | ligand displacement | – | radioligand | 75 µM | -19 |
| COc1ccc(C(=O)Nc2c(-c3cccs3)nc3ccccn23)cc1 | ligand displacement | – | radioligand | 10 µM | < 50 |
| Cn1ccc2cc(-n3c(=O)[nH]c4sc5c(c4c3=O)CCCC5)ccc21 | transporter uptake | inhibitor | – | 10 µM | -1 |

Excerpt of the above:
| SMILES | read-out | mode | technique | tested at | inhibition [%] |
| --- | --- | --- | --- | --- | --- |
| CO[C@@H](C)c1c(NC(=O)Nc2cnc(-n3nccn3)c(C(F)(F)F)c2)cnc2sc(C)nc12 | ligand displacement | – | radioligand | 10 µM | 19.3 |
